Measurements collected from several papers.
Values joined by “and” are separate records of one study, mostly repeats; a detail may differ. ± gives the spread as reported.

Compound	tested on	assay	system	setting	how to read	quantity	result
CCC[C@H](C(=O)c1ccccc1)N1CCCC1	SLC6A3 (Homo sapiens, UniProt Q01959)	dopamine uptake, inhibitor	HEK293 transiently transfected	DAT S149A/S429G mutant, together with: [3H]dopamine	–	Ki	581 nM
COC(=O)[C@@H](NC(=O)c1nn(Cc2ccc(F)cc2)c2cc(OCCCCNC(=N)N)ccc12)C(C)(C)C	Cannabinoid receptor 1, with Gz (CNR1, Homo sapiens, UniProt P21554)	GTP turnover, agonist, measured: Gz Gα subtype	–	–	–	maximal efficacy	106%
CCOC(=O)[C@@H]1Cc2c(cc([N+](=O)[O-])cc2[N+](=O)[O-])[C@H](O)[C@]12C(=O)Nc1ccc(Br)cc12	BMPR2 (Homo sapiens, UniProt Q13873)	KINOMEscan	–	100 nM	relative to: DMSO control	remaining binding	100%
CS(C)(=O)=Nc1ccc(-c2ccc(-c3nc4cc(O[C@@H]5CO[C@H]6[C@@H]5OC[C@H]6O)[nH]c4cc3F)cc2)cc1	HRH3 (Homo sapiens, UniProt Q9Y5N1)	calcium signal, antagonist	–	10 µM	–	inhibition	3%
C[C@]1(COC(=O)c2ccccc2O)[C@H](C(=O)O)N2C(=O)/C(=C/c3ccccn3)[C@H]2S1(=O)=O	Beta-lactamase (blaOXA-33, Acinetobacter baumannii, UniProt Q8RLA6)	–	–	–	–	Ki (inactivation)	920 ± 152 nM
C=CC(=O)NC[C@H](NC(=O)[C@H](CC1CCCCC1)NC(=O)[C@H](CCC(N)=O)NC(C)=O)C(=O)N[C@@H](CC(C)C)C(=O)N[C@@H](Cc1ccccc1)C(=O)O	Beta sliding clamp (Escherichia coli, UniProt P0A988)	binding, isothermal titration calorimetry	–	22 °C	–	-TΔS	2.1 kcal/mol
O=C1NC2(CC2)COc2ncc(F)cc2[C@H]2COCCN2c2ccn3ncc1c3n2	–	–	Sprague-Dawley rat, male, plasma	oral, 10 mg/kg/day, end of recovery, 4-week repeated-dose toxicity	–	prothrombin time	8.9 ± 0.2 s
CC(C)(C)C(=O)OCOP(=O)(OCOC(=O)C(C)(C)C)C1CCCN(O)C1=O (stereo not shown)	OVCAR-8	–	–	–	–	GI50	305 nM
Cc1cc(-c2ccc3ccccc3c2)nnc1NCCN1CCN(C)CC1	Slc6a2 (Rattus norvegicus, UniProt Q9WTR4)	monoamine uptake	rat synaptosomes	concentration not given	–	uptake inhibition	negative
CC(C)CC(O)(CC(C)C)c1cn(C(=O)N2CCCC2)nn1	Phospholipase DDHD1 (Ddhd1, Mus musculus, UniProt Q80YA3)	probe labelling, inhibitor, competitive ABPP-SILAC, measured: Ddhd1	mouse T cells	concentration not given, 4 h, single peptide	relative to: treated over DMSO cells, lower = stronger inhibition	SILAC activity ratio	1.39 and 1.42 and 1.08 and 1.07 and 1.24 and 1.04 and 1.2 and 1.26
CCCCC/C=C\C/C=C\C/C=C\C/C=C\CCCC(=O)NCCc1ccc(O)c(O)c1	Trpv1 (Mus musculus, UniProt Q704Y3, Y512F)	ion current, agonist, whole-cell patch clamp	–	Y512F	–	Hill coefficient	1.54 ± 0.22
COc1ccccc1-c1n[nH]c2nc(N[C@H]3CC[C@H](NS(=O)(=O)CC(C)C)CC3)ncc12	–	bead binding, competition bead pull-down, measured: LINJ.21.0300	Leishmania donovani extract	10 µM	relative to: vehicle	relative abundance	0.66
C/C(=N\OCCCN1CCCCC1)c1ccc(C(F)(F)F)cc1	GABA-A receptor; alpha-1/beta-2/gamma-2 (Homo sapiens, UniProt P14867+P18507+P47870)	agonist, FLIPR membrane potential	–	10 µM	–	activation	10%
COc1cc2c3cc1Oc1cc(ccc1O)CC1c4c(cc(OC)c(O)c4Oc4ccc(cc4)CC3N(C)CC2)CCN1C (stereo not shown)	Glideosome-associated protein 50 (GAP50, Plasmodium falciparum, UniProt Q8I2X3)	binding, surface plasmon resonance	–	1:1 binding model	–	koff	0.442 s⁻¹
COc1cc2c(cc1NC(=O)c1cncn1C)C[C@H]1[C@H]3CCCC[C@@]23CCN1C	KCNH2 (Homo sapiens, UniProt Q12809)	ligand displacement, radioligand	–	10 µM	–	inhibition	27%
C#CCCCCOc1ccc2c(c1)CCCN2C(=O)CCl	Beta-secretase 2 (BACE2, Homo sapiens, UniProt Q9Y5Z0)	mass spectrometry profiling	H460 cell lysate	100 µM over 10 µM, UniProt Q9Y5Z0	relative to: high over low concentration	reactivity ratio	1.3
CC[C@H](C)[C@H](NC(=O)[C@H](CO)NC(=O)[C@H](Cc1ccc(O)cc1)NC(=O)[C@H](Cc1ccc(O)cc1)NC(=O)[C@H](CC(N)=O)NC(=O)CNC(=O)[C@H](CO)NC(=O)[C@H](Cc1ccc(O)cc1)NC(=O)[C@H](CO)NC(=O)[C@H](CO)NC(=O)[C@H](CC(N)=O)NC(=O)COCCOCCNC(=O)CN1CCN(CC(=O)O)CCN(CC(=O)O)CCN(CC(=O)O)CC1)C(=O)N[C@@H](CC(C)C)C(N)=O [copper-64 labelled]	–	dynamic PET	tamoxifen-induced PDAC mouse model, pancreas	12.5 min, CLDN4-expressing tumours	–	maximum pancreas uptake	17.6 %IA/cc

Compound	tested on	assay	system	setting	how to read	quantity	result
Cc1cc(C(=O)Nc2nc3cccc(C)c3n2[C@H]2CCCCN(C(=O)/C=C/CN(C)C)C2)ccn1	Trypanosoma brucei brucei	–	CLK1 C215S mutant expressing	10 x EC50, 24 h	–	cell growth	633% and 667%
CN(C)[C@H]1C[C@@]23CC[C@@]4(O2)C(=CC[C@]2(C)[C@@H](c5ccc6ccncc6c5)CC[C@H]24)C=C3[C@@H](O)[C@@H]1O	NEK8 (Homo sapiens, UniProt Q86SG6)	ATP probe labelling, inhibitor, KiNativ profiling	–	0.1 µM	–	inhibition	10.4%
CC[C@H](C)[C@H](NC(=O)[C@H](CCCCN)NC(=O)CNC(=O)[C@H](CC(C)C)NC(=O)[C@H](Cc1ccccc1)NC(=O)[C@H](CCCCN)NC(=O)[C@H](CO)NC(=O)[C@H](Cc1ccccc1)NC(=O)[C@H](Cc1c[nH]c2ccccc12)NC(=O)[C@H](CCC(N)=O)NC(=O)[C@@H](NC(=O)[C@H](Cc1ccccc1)NC(=O)CCCCCNC(=O)CN1CCN(CC(=O)O)CCN(CC(=O)O)CCN(CC(=O)O)CC1)C(C)C)C(=O)N[C@@H](CCC(=O)O)C(=O)N1CCC[C@H]1C(=O)N[C@@H](CC(=O)O)C(=O)N[C@H](C(=O)N[C@@H](CO)C(=O)N[C@@H](CCC(N)=O)C(=O)N[C@H](C(=O)N[C@@H](CCC(N)=O)C(=O)N[C@@H](CC(=O)O)C(=O)N1CCC[C@H]1C(=O)N[C@@H](CC(N)=O)C(=O)N[C@@H](CC(=O)O)C(=O)N[C@@H](CCC(N)=O)C(=O)N[C@@H](Cc1ccc(O)cc1)C(=O)N[C@@H](CCC(=O)O)C(=O)N1CCC[C@H]1C(=O)N[C@@H](Cc1ccccc1)C(=O)O)C(C)C)C(C)C [copper-64 labelled]	–	–	C57BL/6 mice, thymus	vehicle, intratracheal instillation	–	tissue uptake	1.18 ± 0.07 %ID/g
CC[C@H](C)[C@H](NC(=O)[C@H](CCCNC(=N)N)NC(=O)[C@H](CCCNC(=N)N)NC(=O)[C@H](CC(C)C)NC(=O)[C@H](Cc1ccccc1)NC(=O)CNC(=O)CNC(=O)[C@@H](N)Cc1ccc(O)cc1)C(=O)N[C@@H](CCCNC(=N)N)C(=O)N1CCC[C@H]1C(=O)N[C@@H](CCCCN)C(=O)N[C@@H](CC(C)C)C(=O)N[C@@H](CCCCN)C(=O)O	GPR139 (Homo sapiens, UniProt Q6DWJ6)	G protein activation, agonist, BRET, measured: Gα11	HEK-293T/17	40 µM	relative to: GαoA response	Emax	61.7% and 53.1%
Nc1ccc(/C=C/C(=O)N2CCc3c(oc4c(-c5ccc(F)cc5)cc(-c5ccc(C(=O)N6CCC(F)(F)CC6)cn5)cc34)C2)cn1	PLK4 (Homo sapiens, UniProt O00444)	binding, competition with immobilised ligand	–	1 µM	–	remaining binding	88%
O=C(CN1CN(c2ccccc2)C2(CCN(C(=O)c3cnc4[nH]ncc4c3)CC2)C1=O)NCC(F)(F)F	Non-receptor tyrosine-protein kinase TYK2, JH2 pseudokinase domain (TYK2, Homo sapiens, UniProt P29597)	inhibitor	–	concentration not given	–	inhibition	< 50%
C[C@H](NCc1ccc(-c2ccc(C(F)(F)F)cc2)cc1)C(N)=O	PAK2 (Homo sapiens, UniProt Q13177)	cell-free assay, competition with immobilised ligand	–	1 µM	–	inhibition	22%
C[C@@H](N)C(=O)N[C@H](Cc1ccccc1)C(=O)N[C@@H](Cc1ccccc1)C(=O)N[C@@H](CC(=O)O)C(=O)O	uncharacterized protein (Aplysia californica, UniProt A0ABM0K1K5)	IP1 accumulation	CHO-K1 transfected	–	–	fold loss of potency	~3 fold
N[C@H](C(=O)N1CCCC1)C1CCN(c2nccc3c(-c4ncc(Cl)cc4Cl)cccc23)CC1	PADI1 (Homo sapiens, UniProt Q9ULC6)	enzyme activity	–	0.2458 µM, together with: Ca2+ 0.25 mM	–	kcat	0.139 s⁻¹ and 0.15 s⁻¹
N=C(N)NCCC[C@@H]1NC(=O)[C@H](CCCCNC(=O)CCC(NC(=S)Nc2ccc(CC3CN(CC(=O)O)CCN(CC(=O)O)CCN(CC(=O)O)CCN3CC(=O)O)cc2)C(=O)NCCCC[C@@H]2NC(=O)[C@@H](Cc3ccc(O)cc3)NC(=O)[C@H](CC(=O)O)NC(=O)CNC(=O)[C@H](CCCNC(=N)N)NC2=O)NC(=O)[C@@H](Cc2ccc(O)cc2)NC(=O)[C@H](CC(=O)O)NC(=O)CNC1=O (stereo partly shown) [scandium-44 labelled]	–	PET imaging ROI	female athymic nude mice, U-87 MG xenograft, muscle	intravenous, 0.5 h, together with: cRGD 50 mg/kg blocking	–	tissue uptake	0.41 ± 0.12 %ID/g
CC(C)[C@H]1NC(=O)C[C@H]2/C=C/CCSSC[C@@H](NC1=O)C(=O)N[C@H](Cc1cccc3ccccc13)C(=O)NCC(=O)O2	TEC (Homo sapiens, UniProt P42680)	enzyme activity, inhibitor	–	10 µM	–	inhibition	3.1%
CC[C@H](C)[C@@H]1NC(=O)[C@H](CC(C)C)NC(=O)CNC(=O)[C@H](CCCNC(=N)N)NC(=O)[C@H](Cc2c[nH]c3ccccc23)NC(=O)[C@H](CCSC)NC(=O)[C@H](CO)NC(=O)[C@H](CCC(=O)O)NC(=O)[C@H](Cc2ccccc2)NC(=O)[C@H](CC(=O)O)NC(=O)[C@H]([C@@H](C)O)NC(=O)CNC(=O)[C@H](CCC(=O)O)NC(=O)[C@H]([C@@H](C)O)NC(=O)CNC(=O)[C@H](CC(=O)O)NC1=O	MDM2 (Homo sapiens, UniProt Q00987)	MDM2-ligand binding, inhibitor, AlphaLISA competition	–	12.5 µM, together with: GST-tagged MDM2 ligand	lower = stronger inhibition	AlphaLISA signal	1340 a.u. and 1350 a.u. and 1370 a.u.
O=C1NC(=O)c2c1c1cc(F)c[n+]3c1c1c2c2cc(O)ccc2[n]1[Ru-4]312([N]=C=S)[S+]3CC[S+]1CC[S+]2CC3 (stereo not shown)	CK1 (yeast)	kinase activity, inhibitor	–	100 nM, together with: 10 µM ATP	–	remaining activity	3%
COc1ccccc1-c1n[nH]c2nc(NC3CCN(C(=O)Cc4ccc(F)cc4F)CC3)ncc12	–	bead binding, competition bead pull-down, measured: LINJ.35.1420	Leishmania donovani axenic amastigote extract	10 µM	relative to: vehicle	relative abundance	1.1
COCC1CCCCN1C(=O)n1cc(C(O)(c2ccccc2)c2ccccc2)nn1 (stereo not shown)	Lysosomal phospholipase A and acyltransferase (Pla2g15, Mus musculus, UniProt Q8VEB4)	probe labelling, inhibitor, competitive ABPP-SILAC, measured: Lypla3	mouse T cells	concentration not given, 4 h, single peptide	relative to: treated over DMSO cells, lower = stronger inhibition	SILAC activity ratio	1.53 and 1.36 and 1.46 and 1.57 and 1.48 and 1.21 and 1.58 and 1.6
CON(C(=O)c1cn(C)nc1C(F)F)C(C)Cc1c(Cl)cc(Cl)cc1Cl (stereo not shown)	SDHD/SDHC/SDHB (Sus scrofa, UniProt A5GZW8+D0VWV4+Q007T0)	enzyme activity, inhibitor, DCIP reduction	pig	0.3 µM, together with: DCIP 5 µM	–	reaction velocity	0.00144 µM/s and 0.0014 µM/s and 0.00138 µM/s
Cc1cc(=O)oc2cc(OCCCCCC[Se]C#N)ccc12	CA12 (Homo sapiens, UniProt O43570)	stopped-flow CO2 hydration	–	–	relative to: Ki CA I over Ki CA XII	selectivity ratio	> 1290
